# Experimental data gathered from unrelated publications.
# Every numbered part comes from another study and shows a few of its results, in no order.

# Block 1 — technique: protein-binding microarray; form: double-stranded DNA, one strand shown; sample: in vitro; tested at: 2200 nM top; notes: 60-bp whole probe; together with: salmon DNA 0.4 mg/ml; baseline: random background probes; reading: higher = stronger binding; all sequences stand within: GCCTAGCAC … GTCTTGATTCGCTTGACGCTGCTG
# Target: Interferon regulatory factor 7, full length, phosphomimetic (IRF7, Homo sapiens, UniProt Q92985, residues 1-503, S471D/S472D/S475D/S476D/S477D/S483D/S484D/S487D)
# UniProt Q92985, sequence (whole entry, unmodified, looked up): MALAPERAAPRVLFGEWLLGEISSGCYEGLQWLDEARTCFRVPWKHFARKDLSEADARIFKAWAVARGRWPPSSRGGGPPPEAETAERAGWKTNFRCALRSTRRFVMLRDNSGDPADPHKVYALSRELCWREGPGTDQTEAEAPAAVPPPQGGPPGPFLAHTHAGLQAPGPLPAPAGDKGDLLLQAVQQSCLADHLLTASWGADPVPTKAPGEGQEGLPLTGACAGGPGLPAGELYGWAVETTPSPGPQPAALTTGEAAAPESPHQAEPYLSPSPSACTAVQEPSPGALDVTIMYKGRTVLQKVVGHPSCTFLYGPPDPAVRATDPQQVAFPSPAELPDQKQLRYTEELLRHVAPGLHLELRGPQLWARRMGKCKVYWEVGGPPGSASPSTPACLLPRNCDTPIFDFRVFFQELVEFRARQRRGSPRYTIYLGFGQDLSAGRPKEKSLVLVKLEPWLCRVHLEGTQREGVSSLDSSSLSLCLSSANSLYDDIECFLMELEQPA
Sequence,fitted relative affinity
TGTGTTATTAAATTTTCACGGGTGCTA,0.405 z-score
TTTGGTCTCGGTCTCGGTTAGTGCTAG,1.52 z-score
ATATATGTGTATATATAATAGTGCTAG,0.373 z-score
TCATTTGACTCTTTCTGACTGTGCTAG,1.75 z-score
TCATCTTTCTAATTCAAACTGTGCTAG,2.37 z-score
GACGATATCGGTCTCGAGACGTGCTAG,0.414 z-score

# Block 2 — technique: Sort-seq; measured: YFP reporter; sample: E. coli; notes: PhoQ-PhoP variant library; together with: 10 µM Mg2+; baseline: high Mg2+ state; reading: higher = stronger signaling
# Substance: PhoQ, residues 284 288 289 292 302 303 SLKLQV
target,fold induction
"PhoP, residues 12 14 15 18 19 STHWV (Escherichia coli, UniProt P23836)",17.8
"PhoP, residues 12 14 15 18 19 QYCSL (Escherichia coli, UniProt P23836)",6.97
"PhoP, residues 12 14 15 18 19 SHWTV (Escherichia coli, UniProt P23836)",4.67

# Block 3 — technique: protein binding microarray; form: double-stranded DNA, one strand shown; sample: in vitro; tested at: not given; baseline: not given; reading: higher = stronger binding
# Target: Histone acetyltransferase KAT6A, winged helix 2, GST fusion (KAT6A, Homo sapiens, UniProt Q92794, residues 85-181)
# Notes: 8-mer, flanks averaged, mean of 2 arrays, mostly near background
# Target sequence (chain): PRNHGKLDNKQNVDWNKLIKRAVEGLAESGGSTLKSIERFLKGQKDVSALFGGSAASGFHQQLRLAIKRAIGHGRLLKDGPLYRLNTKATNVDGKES
Sequence,E-score
AATTTGAC,0.127
GTTCACCA,0.0216
CTATAGGA,-0.205
ATAACATA,-0.134
ACAGAAGT,-0.0388
AGGCCATG,-0.0284
CCTGGGGA,-0.167
CCACGATC,0.0332

# Block 4 — technique: universal PBM; form: double-stranded DNA, one strand shown; sample: in vitro; tested at: 600 nM; reading: higher = stronger binding
# Target: Sal-like protein 4, full length isoform A (SALL4, Homo sapiens, UniProt Q9UJQ4, residues 1-1053)
# UniProt Q9UJQ4, sequence (whole entry, looked up): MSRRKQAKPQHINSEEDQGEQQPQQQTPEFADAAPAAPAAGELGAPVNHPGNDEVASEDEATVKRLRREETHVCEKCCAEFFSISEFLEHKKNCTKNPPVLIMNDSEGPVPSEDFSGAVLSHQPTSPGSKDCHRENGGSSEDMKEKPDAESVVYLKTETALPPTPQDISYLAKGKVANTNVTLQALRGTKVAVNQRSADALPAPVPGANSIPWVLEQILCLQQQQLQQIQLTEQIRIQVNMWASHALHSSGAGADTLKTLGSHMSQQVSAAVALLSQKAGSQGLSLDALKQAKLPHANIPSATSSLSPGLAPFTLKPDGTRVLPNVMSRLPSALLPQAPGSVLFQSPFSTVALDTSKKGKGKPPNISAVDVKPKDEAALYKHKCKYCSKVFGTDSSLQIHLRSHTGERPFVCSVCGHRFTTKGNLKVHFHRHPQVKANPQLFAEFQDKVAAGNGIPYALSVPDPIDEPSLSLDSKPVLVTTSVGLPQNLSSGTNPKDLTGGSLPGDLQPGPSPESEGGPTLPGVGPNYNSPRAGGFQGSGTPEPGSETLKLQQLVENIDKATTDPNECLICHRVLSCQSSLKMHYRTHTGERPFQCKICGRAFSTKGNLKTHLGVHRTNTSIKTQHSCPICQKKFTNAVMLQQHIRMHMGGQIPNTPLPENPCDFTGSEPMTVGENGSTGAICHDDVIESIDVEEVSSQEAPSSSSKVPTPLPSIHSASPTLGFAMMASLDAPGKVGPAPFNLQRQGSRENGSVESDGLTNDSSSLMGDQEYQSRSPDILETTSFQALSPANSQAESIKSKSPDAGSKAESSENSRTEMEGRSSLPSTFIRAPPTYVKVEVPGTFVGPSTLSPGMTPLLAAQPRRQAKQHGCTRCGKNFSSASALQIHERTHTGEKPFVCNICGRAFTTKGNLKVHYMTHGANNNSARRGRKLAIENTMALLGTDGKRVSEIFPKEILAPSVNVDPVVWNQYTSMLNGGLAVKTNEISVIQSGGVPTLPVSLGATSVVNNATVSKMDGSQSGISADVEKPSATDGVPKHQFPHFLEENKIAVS
# Notes: 8-mer, flanks averaged, mean of replicates
Sequence,E-score
ACCAAACG,-0.214
AGATCCGA,-0.0423
CGGCTAAA,-0.00423
CCTTATGA,0.15
GTGGCCAC,-0.197
ATAGATGC,0.0662
CTTCAATC,0.103
AGCGAGTC,-0.197
GCAACCTA,-0.0209
